{"data": "Assay results pooled from the literature", "cell line": "HOP-62", "method": "SRB", "note": "pIC50: −log10 of the molar value."}
{"Structure (SMILES)": "O=C(CN1CCC(c2noc3cc(F)ccc23)CC1)N1CCC(=C2c3ncccc3CCc3cc(Cl)cc(Br)c32)CC1", "effect on": "cell growth or viability", "quantity": "pIC50", "result": 3.92}
{"Structure (SMILES)": "COc1cc(CNC(=O)C[C@H](C)CCC=C(C)C)ccc1OCc1cn(-c2ccc(Cl)c(Cl)c2)nn1", "concentration": "10 µM", "time": "48 h", "quantity": "growth percent", "result": "95.7%"}
{"Structure (SMILES)": "CCC(=C(c1ccc(Cl)cc1)c1ccc(OCCCN(C)C)cc1)c1ccc(OC)cc1", "effect on": "cell growth or viability", "quantity": "GI50", "result": "7.76 µM"}
{"Structure (SMILES)": "O=C(CSc1nc(-c2ccccc2)n[nH]1)N1CCC(=C2c3ncccc3CCc3cc(Cl)cc(Br)c32)CC1", "effect on": "cell growth or viability", "quantity": "pIC50", "result": "< 3.92"}
{"Structure (SMILES)": "COc1cc(CNC(=O)C[C@H](C)CCC=C(C)C)ccc1O", "concentration": "10 µM", "time": "48 h", "quantity": "growth percent", "result": "85.8%"}
{"Structure (SMILES)": "O=C(CNc1nnc(-c2ccccc2)s1)N1CCC(=C2c3ncccc3CCc3cc(Cl)cc(Br)c32)CC1", "effect on": "cell growth or viability", "quantity": "pIC50", "result": "< 3.92"}
{"Structure (SMILES)": "COc1cc(CNC(=O)C[C@H](C)CCC=C(C)C)ccc1OCc1cn(-c2ccccc2Cl)nn1", "concentration": "10 µM", "time": "48 h", "quantity": "growth percent", "result": "79.2%"}
{"Structure (SMILES)": "CC/C=C\\C/C=C\\C/C=C\\C/C=C\\C/C=C\\C/C=C\\CCC(=O)Nc1ccn(C2OC(CO)C(O)C2(F)F)c(=O)n1 (stereo not drawn)", "effect on": "cell growth or viability", "quantity": "GI50", "result": "0.0186 µM"}
{"Structure (SMILES)": "CC(=O)OC[C@H]1O[C@@H](Sc2sc(C(=O)c3ccc(Br)cc3)c(N)c2-c2nc3ccccc3s2)[C@H](OC(C)=O)[C@@H](OC(C)=O)[C@H]1OC(C)=O", "concentration": "10 µM", "time": "48 h", "baseline": "untreated", "quantity": "growth", "result": "91.1%"}
{"Structure (SMILES)": "CC(=C(c1ccc(O)cc1)c1ccc(Cl)cc1)c1ccc(Cl)cc1", "effect on": "cell growth or viability", "quantity": "GI50", "result": "0.59 µM"}
{"Structure (SMILES)": "COc1cc(CNC(=O)C[C@H](C)CCC=C(C)C)ccc1OCc1cn(-c2ccccc2[N+](=O)[O-])nn1", "concentration": "10 µM", "time": "48 h", "quantity": "growth percent", "result": "78.1%"}
{"Structure (SMILES)": "CC(=O)OC[C@H]1O[C@@H](Sc2sc(C(=O)c3ccc(C)cc3)c(N)c2-c2nc3ccccc3s2)[C@H](OC(C)=O)[C@@H](OC(C)=O)[C@@H]1OC(C)=O", "concentration": "10 µM", "time": "48 h", "baseline": "untreated", "quantity": "growth", "result": "61.5%"}
{"note": "Some of these lines once more:"}
{"Structure (SMILES)": "COc1cc(CNC(=O)C[C@H](C)CCC=C(C)C)ccc1OCc1cn(-c2ccccc2Cl)nn1", "concentration": "10 µM", "time": "48 h", "quantity": "growth percent", "result": "79.2%"}
{"Structure (SMILES)": "CC/C=C\\C/C=C\\C/C=C\\C/C=C\\C/C=C\\C/C=C\\CCC(=O)Nc1ccn(C2OC(CO)C(O)C2(F)F)c(=O)n1 (stereo not drawn)", "effect on": "cell growth or viability", "quantity": "GI50", "result": "0.0186 µM"}
